Published values from different studies.
Every numbered part comes from another study and shows a few of its results, in no order. Positions count from the first letter of the parent shown.

Study 1 — technique: universal PBM; form: double-stranded DNA, one strand shown; sample: in vitro; concentration: 600 nM; reading: higher = stronger binding
Target: Sal-like protein 4, full length isoform A (SALL4, Homo sapiens, UniProt Q9UJQ4, residues 1-1053)
Sequence of UniProt Q9UJQ4 (whole entry, looked up): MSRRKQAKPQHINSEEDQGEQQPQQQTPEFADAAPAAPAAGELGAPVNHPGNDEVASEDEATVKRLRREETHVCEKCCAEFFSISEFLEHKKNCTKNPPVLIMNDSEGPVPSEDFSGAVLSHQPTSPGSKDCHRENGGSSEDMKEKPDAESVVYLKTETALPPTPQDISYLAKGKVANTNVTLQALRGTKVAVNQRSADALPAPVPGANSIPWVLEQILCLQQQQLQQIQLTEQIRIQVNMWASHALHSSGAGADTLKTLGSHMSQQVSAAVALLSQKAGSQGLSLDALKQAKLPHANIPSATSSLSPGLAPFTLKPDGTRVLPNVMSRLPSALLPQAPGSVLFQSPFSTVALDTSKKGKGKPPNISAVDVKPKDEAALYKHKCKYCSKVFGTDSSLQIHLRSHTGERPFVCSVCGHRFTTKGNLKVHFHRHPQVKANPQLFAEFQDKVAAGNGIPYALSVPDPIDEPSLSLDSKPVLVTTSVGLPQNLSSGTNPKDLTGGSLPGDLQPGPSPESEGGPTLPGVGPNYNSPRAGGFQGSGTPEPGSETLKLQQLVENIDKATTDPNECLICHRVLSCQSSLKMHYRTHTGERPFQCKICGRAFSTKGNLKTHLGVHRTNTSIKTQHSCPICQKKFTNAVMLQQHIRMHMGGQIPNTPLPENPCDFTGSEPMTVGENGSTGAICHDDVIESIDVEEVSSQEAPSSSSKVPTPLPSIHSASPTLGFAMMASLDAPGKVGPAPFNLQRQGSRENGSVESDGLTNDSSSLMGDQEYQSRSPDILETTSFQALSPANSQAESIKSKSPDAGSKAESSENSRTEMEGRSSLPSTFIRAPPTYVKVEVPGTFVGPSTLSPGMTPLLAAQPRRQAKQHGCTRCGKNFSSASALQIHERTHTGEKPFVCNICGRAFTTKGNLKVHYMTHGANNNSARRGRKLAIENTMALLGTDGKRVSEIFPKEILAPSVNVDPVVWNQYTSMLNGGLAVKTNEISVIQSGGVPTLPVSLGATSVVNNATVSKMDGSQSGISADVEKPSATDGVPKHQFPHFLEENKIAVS
Notes: 8-mer, flanks averaged, mean of replicates
Sequence	E-score
CCCGTATC	-0.216
ATGCTCTC	-0.0404
ATTAGCGA	0.169
ACAAGGTA	0.194
GCGTAGAA	-0.0742
GTGTTGGA	-0.0714
ACGCATGA	0.0406
TACCGTGA	-0.0739
CAGGCAAA	0.147
GGTTTAAA	0.192
GAGAACAC	-0.164
TAACTTAA	0.344
AGTGACGC	-0.243
ACTGTCCA	-0.00285
CCGCGTAA	-0.111
CATAACGG	0.0825
CAGATGCA	-0.0882
GATGGTGA	-0.037
GATCCACA	0.0559
CTGGTATC	-0.12
CCCTTGTA	0.0791
CTTAATCC	0.0317
CCTGCCAG	-0.235
CTTTAATA	0.374
CTGGGAAG	-0.176

Study 2 — technique: RNA Bind-n-Seq; form: RNA; sample: in vitro; concentration: 365 nM; relative to: no-protein control; reading: higher = stronger binding
Target: RNA binding protein fox-1 homolog 2, RRM domain, GST-SBP tag (RBFOX2, Homo sapiens, UniProt O43251-10, residues 100-194)
Notes: natural RNA segment, single round, ends assumed
Constant ends, left off below: GGGAGUUCUACAGUCCGACGAUC … UGGAAUUCUCGGGUGCCAA
Residues (chain): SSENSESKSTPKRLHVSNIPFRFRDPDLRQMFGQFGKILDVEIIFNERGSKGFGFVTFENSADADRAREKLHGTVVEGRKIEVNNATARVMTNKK
Sequence	RBNS enrichment (R)
AGAACAUGAAAUGCUUCUUUCUCAGUUUAUUGGUUGAAUGUGUAUCUAUUUGAGUCUGGAAAUAACUAAUGUGUUUGAUAAUUAGUUUAGUUUGUGGCUUCAUGGAAACU	3.69
AGGCCAGGAAGGCAGUGGGGAUCCACCAUCACAUGGAACUGUAAGGCCAUAUAACUACACAAAACUGACCAAUCUGGGUUGCCAAAGCAGCCAGGCUUAUGCUGAAACCG	0.375
AUAAUCAAAACUUUUUACAUGAGCAAAAUUCAGUAAGAAAUGGGGGAAGACAAAGGAAACGUCUUUGAGAAGCCCCUUCAUAUUUAUUUAUUUAUCUCUUCCUGAACCAU	0.412
UCCCUGGCGUCCUUCUGAAACUACACCAUGUGGCCCCUUGGAACUAAUCCCAAGUCAAUGCGUGUAUCCCCUGCCAGGCUGCCUCAGCCUCCCUCCCCAUUACCCACUCU	0.539
UUCCUACUGGCUGGGGUUUCUCCCUCACUCUGCCUCCCAAACACAAUAAAUACAUAGUUGCCCACCAGCCCAUGUCUUUAUUGUAUGUGGACCCUUCUGACUUAGGCAUU	0.358
AGCAGAUGUGCCUCAGUUUCCCCAUCAGACACCUACCUCACCAGGGCAUUGUGGCAGAAUUUUAGGAAGGCAUUGUACAGCCUCUAAGCAUAUCUAAGUGCCAUGAAUAC	0.455
GGAUGCUGUGCUACGUGUGAAAUCUGUCUUUGCGGGGCCUGUCUCAGUGAUUCGCUUUUGGUAUUUGUUUGUAGCUUUCCUGGAAGUCAAAUAAAUGUUUCCCCCACUCC	0.332
AAAAGACUUUGUUUAAAGAUUUUAUUUAAACUAUUAAGAAUCAACAUGCAAACAGCCUACUUCUUCAUGAACAAUUCCAUUUUAUUGACUGAACUUUUCUCAUAUUUUCA	1.03
UCAGAACUUGUGGCGUAAGACAAGCCAUUUUCUGGUAUUGGUGGAGAACGGAACCAAAGCUGGGCACCGACUUCUCAUGGAUGCCAGGAACCUGGUCCUCGGGGAAAAAG	0.302
CUAAUGUGCACCUGUGAGGUGUAACCCCCCGCUUUGGAGACGAGAUGGCUCUUGUUCAGUCAAGACCCCAGACUCUGGCCACAAAAAUGCCAUAAUGCCUGUUGGUAUUU	0.414
UUUCAGUGACAAAUCAGAGUUUCUUACAAGUUAUUGUCCUGCUCCCUUCCAAGUUGUCUUGAAGAAUCCUUGCUGCUAACUCUGGAUCCUGCUUUUCCUAUAGUCAGAGG	0.527
GCCUCCUUUCGCAGCCAGCCUGGGAUAGAGUUACUGACAUUUGAGGGCUGGCCAUCUUUCACCAUGCUGAGGGGAUUUUAACAAUACAAUUCCCGUUUAUAUUUAUAUCU	0.57

Study 3 — target: CEP164, C-terminal peptide (human); technique: DHFR complementation, deep sequencing; sample: yeast; relative to: wild type; reading: higher = weaker binding
Notes: single substitutions, model-inferred values
Starting sequence: PDZK1, PDZ domain 2 (human); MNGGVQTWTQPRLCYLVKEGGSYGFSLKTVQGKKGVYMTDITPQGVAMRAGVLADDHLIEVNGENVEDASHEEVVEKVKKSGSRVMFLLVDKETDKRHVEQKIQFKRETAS; partner HNRVKVYRF
Change	binding free energy change [kcal/mol]
T9R	-0.0998
K96I	0.02
I41E	1.1
F87L	0.182
V36N	-0.0499
E93S	-0.0628
C14D	1.41
V75R	2.48
L58P	-0.122

Study 4 — target: CREB3L4, bZIP domain (human); technique: DHFR protein complementation; sample: yeast; relative to: wild-type JUN-FOS pair; reading: higher = stronger binding
Notes: single substitutions, most at no-binding floor
Starting sequence: JUN, bZIP domain (human); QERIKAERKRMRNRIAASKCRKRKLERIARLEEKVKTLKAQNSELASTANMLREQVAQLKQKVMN; partner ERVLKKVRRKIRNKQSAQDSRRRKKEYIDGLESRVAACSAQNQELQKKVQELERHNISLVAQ
Change	binding fitness [natural log]
E44I	-1.55
L59P	-1.5
T37P	-1.54
A57V	-1.57
E44N	-1.47
T48M	-1.28
L45G	-1.52
A46H	-1.48
S47W	-1.33
Q41K	-1.43
N42M	-1.51
V35R	-1.53
N42W	-1.47
I28K	-1.55
L45M	-1.54

Study 5 — technique: DHFR PCA, deep sequencing; sample: yeast; added: (+)-ABA 200 µM; relative to: wild-type fitted maximum; reading: higher = stronger binding
Target: ABI1, truncated, D143A, DHFR fusion (Arabidopsis thaliana)
Notes: methotrexate growth selection, single substitutions
Starting sequence: PYL1, truncated, DHFR fusion (Arabidopsis thaliana); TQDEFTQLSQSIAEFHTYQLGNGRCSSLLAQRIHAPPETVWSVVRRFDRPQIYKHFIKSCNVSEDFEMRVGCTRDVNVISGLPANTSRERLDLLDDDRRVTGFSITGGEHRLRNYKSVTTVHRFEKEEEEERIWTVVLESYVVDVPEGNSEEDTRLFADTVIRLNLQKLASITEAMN
Change	relative binding score
C72Q	102%
R74W	-8.21%
V118I	99.7%
D92K	-7.75%
K54M	12.9%
S42M	91.2%
P146E	20.5%
Q51A	74.2%
E14I	85.2%
F5T	96.3%
W134L	104%
H34R	87.1%
E152D	97.6%
A84I	19.5%

Study 6 — target: CCND2, cyclin fold, Cln2 fusion (human); technique: yeast growth competition, sequencing; sample: yeast; notes: weak parent motif; relative to: not given; reading: higher = stronger binding
Starting sequence: LLGL2 docking peptide (human); KSLKKSLRQSFRR
Change	normalised enrichment score
KSLAKSLRQSFRR [K4A]	-0.391
KSAKKSLRQSFRR [L3A]	-0.379
KSLKKSLRQSARR [F11A]	-0.242
KSLKKSLAQSFRR [R8A]	-0.235
KSLKKSLRQAFRR [S10A]	-1.16
KSLKASLRQSFRR [K5A]	-0.128

Further values, each from its own experiment
Substance	target	assay	test system	conditions	how to read	quantity	value
PhoQ, residues 284 288 289 292 302 303 GASLAW	PhoP, residues 12 14 15 18 19 VHSCL (Escherichia coli, UniProt P23836)	Sort-seq, refers to: YFP reporter	E. coli	PhoQ-PhoP variant library, added: 10 µM Mg2+	relative to: high Mg2+ state, higher = stronger signaling	fold induction	1.14

A few entries again (study 2):
Sequence	RBNS enrichment (R)
UUCCUACUGGCUGGGGUUUCUCCCUCACUCUGCCUCCCAAACACAAUAAAUACAUAGUUGCCCACCAGCCCAUGUCUUUAUUGUAUGUGGACCCUUCUGACUUAGGCAUU	0.358
AAAAGACUUUGUUUAAAGAUUUUAUUUAAACUAUUAAGAAUCAACAUGCAAACAGCCUACUUCUUCAUGAACAAUUCCAUUUUAUUGACUGAACUUUUCUCAUAUUUUCA	1.03
AUAAUCAAAACUUUUUACAUGAGCAAAAUUCAGUAAGAAAUGGGGGAAGACAAAGGAAACGUCUUUGAGAAGCCCCUUCAUAUUUAUUUAUUUAUCUCUUCCUGAACCAU	0.412
CUAAUGUGCACCUGUGAGGUGUAACCCCCCGCUUUGGAGACGAGAUGGCUCUUGUUCAGUCAAGACCCCAGACUCUGGCCACAAAAAUGCCAUAAUGCCUGUUGGUAUUU	0.414
AGAACAUGAAAUGCUUCUUUCUCAGUUUAUUGGUUGAAUGUGUAUCUAUUUGAGUCUGGAAAUAACUAAUGUGUUUGAUAAUUAGUUUAGUUUGUGGCUUCAUGGAAACU	3.69
UCCCUGGCGUCCUUCUGAAACUACACCAUGUGGCCCCUUGGAACUAAUCCCAAGUCAAUGCGUGUAUCCCCUGCCAGGCUGCCUCAGCCUCCCUCCCCAUUACCCACUCU	0.539
GCCUCCUUUCGCAGCCAGCCUGGGAUAGAGUUACUGACAUUUGAGGGCUGGCCAUCUUUCACCAUGCUGAGGGGAUUUUAACAAUACAAUUCCCGUUUAUAUUUAUAUCU	0.57
AGCAGAUGUGCCUCAGUUUCCCCAUCAGACACCUACCUCACCAGGGCAUUGUGGCAGAAUUUUAGGAAGGCAUUGUACAGCCUCUAAGCAUAUCUAAGUGCCAUGAAUAC	0.455
